Measured values from different studies.
Every numbered part comes from another study and shows a few of its results, in no order. Positions count from the first letter of the parent shown.

Sample 1 — technique: protein binding microarray; form: double-stranded DNA, one strand shown; matrix: in vitro; concentration: not given; baseline: not given; reading: higher = stronger binding
Target: Histone acetyltransferase KAT6A, both winged helices, GST fusion (KAT6A, Homo sapiens, UniProt Q92794, residues 1-181)
Setting: 8-mer, flanks averaged, mean of 2 arrays, mostly near background
Target sequence (chain): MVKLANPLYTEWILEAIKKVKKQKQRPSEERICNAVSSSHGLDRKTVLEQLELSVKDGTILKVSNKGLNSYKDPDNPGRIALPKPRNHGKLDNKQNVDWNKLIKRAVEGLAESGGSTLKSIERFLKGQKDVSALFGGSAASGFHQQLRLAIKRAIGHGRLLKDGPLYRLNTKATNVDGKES
| Strand | E-score |
| --- | --- |
| ACCCTCAC | -0.176 |
| ATGCGCGG | 0.35 |
| CCGGGCTC | 0.0588 |
| CGATTCTA | -0.0288 |
| ATGGGTCG | -0.0659 |
| GTTTGGGA | -0.185 |
| AATTTGGC | 0.0103 |
| CGCCATGC | 0.171 |
| AGCACTCG | -0.0431 |
| CGGTCCAC | 0.105 |
| CCATAGGG | -0.0897 |
| GCGTCTGA | 0.0709 |
| GATGAATC | -0.147 |
| CCAGATTA | -0.083 |
| ATGCAAAC | -0.0691 |
| CCGGGAGC | 0.22 |
| CATACGTC | -0.02 |
| ACGGCAAC | 0.307 |
| CTGCTGTC | 0.00962 |
| CTATGTGC | -0.0222 |
| CCCTCGGC | 0.149 |
| AGGGTGTC | -0.337 |
| AATAAGTG | -0.17 |
| AAACTTCG | -0.0423 |
| CGATGAAG | -0.00096 |

Sample 2 — technique: RNA Bind-n-Seq; form: RNA; matrix: in vitro; concentration: 200 nM; setting: whole 134-nt RNA, ends assumed; together with: 150 mM LiCl; baseline: input library; reading: higher = stronger binding; library: 7-deaza-guanosine replaces G
Target: Ras GTPase-activating protein-binding protein 1, full length (G3BP1, Homo sapiens, UniProt Q13283)
UniProt Q13283, sequence (whole entry, looked up): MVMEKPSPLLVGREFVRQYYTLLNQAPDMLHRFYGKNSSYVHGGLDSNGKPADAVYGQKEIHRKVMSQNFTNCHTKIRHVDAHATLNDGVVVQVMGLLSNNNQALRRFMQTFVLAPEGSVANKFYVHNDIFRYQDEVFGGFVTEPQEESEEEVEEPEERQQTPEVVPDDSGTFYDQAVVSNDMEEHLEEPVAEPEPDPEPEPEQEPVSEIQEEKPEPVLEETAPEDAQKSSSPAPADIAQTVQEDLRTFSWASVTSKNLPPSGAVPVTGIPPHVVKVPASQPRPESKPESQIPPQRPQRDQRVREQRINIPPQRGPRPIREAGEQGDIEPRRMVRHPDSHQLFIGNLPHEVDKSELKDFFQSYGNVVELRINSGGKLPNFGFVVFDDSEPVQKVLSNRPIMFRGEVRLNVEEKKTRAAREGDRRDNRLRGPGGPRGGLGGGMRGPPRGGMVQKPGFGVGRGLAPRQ
Constant ends, left off below: GGGAGUUCUACAGUCCGACGAUC … UGGAAUUCUCGGGUGUCAAGG
| Strand | log2 enrichment |
| --- | --- |
| CAAGUCCUGUGCUACACAUCGUAUGUACCGAAUCGGUUUGGGGUUUGGGUUUGGGAAAGUAUUAUGUUACGCCGUUCGGAUCUGCACUUC | -1.01 |
| GCAGGAAGUAAAAACAAAUGGAAAUGCUUCGGAUAGUGGCAGGGGUGAAAGUUGCUAAGGAAAGGGUGGGAUGGGAGUGGGUAAAGAGUU | 0.526 |
| AGUCCUGUGCUACACAUCGUAUGUACCGAAUCGGGAAAGGGAAAAAGGGUUUUUGGGAAAGUAUUAUGUUACGCCGUUCGGAUCUGCACU | -1.79 |
| GUCCUGUGCUACACAUCGUAUGUACCGAAUCGGGGUUUUUGGUUUUUGGUUUUUGGGGAAAGUAUUAUGUUACGCCGUUCGGAUCUGCAC | -0.822 |
| GUCCUGUGCUACACAUCGUAUGUACCGAAUCGGGAAAAAGGGAAAAAGGGGAAAAAGGAAAGUAUUAUGUUACGCCGUUCGGAUCUGCAC | -0.118 |
| GCAGGAAGUAAAAACAAAUGGAAAUGCUUCGGAUAGUGGCAGGGGGGGGGGUUGCUAAGGAAAGGGUGGGAUGGGAGUGGGUAAAGAGUU | -0.489 |
| AGUCCUGUGCUACACAUCGUAUGUACCGAAUCAAACCCCCAAACCCCCAAACCCAAAAAAGUAUUAUGUUACGCCGUUCGGAUCUGCACU | -0.00495 |
| AAGUCCUGUGCUACACAUCGUAUGUACCGAAUCGGGCCCGGGCCCGGGGCCCGGGGAAAGUAUUAUGUUACGCCGUUCGGAUCUGCACUU | -1.04 |
| CUGUGCUACACAUCGUAUGUACCGAAUCAAACCCCCCCAAACCCCCCCAAACCCCCCCAAAAAAGUAUUAUGUUACGCCGUUCGGAUCUG | -0.856 |
| AAGUCCUGUGCUACACAUCGUAUGUACCGAAUCGGUUUUGGGGUUUUGGGUUUUGGGAAAGUAUUAUGUUACGCCGUUCGGAUCUGCACU | -0.0529 |
| AGUCCUGUGCUACACAUCGUAUGUACCGAAUCGGAAAAAAAGGUUUGGAAAAAAAGGAAAGUAUUAUGUUACGCCGUUCGGAUCUGCACU | -2.13 |

Sample 3 — target: FOSB, bZIP domain (human); technique: DHFR protein complementation; matrix: yeast; baseline: wild-type JUN-FOS pair; reading: higher = stronger binding
Setting: single substitutions, most at no-binding floor
Starting sequence: JUN, bZIP domain (human); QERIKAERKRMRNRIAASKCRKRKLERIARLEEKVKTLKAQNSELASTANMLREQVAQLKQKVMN; partner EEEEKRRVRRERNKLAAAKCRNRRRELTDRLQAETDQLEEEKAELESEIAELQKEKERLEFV
| Change | binding fitness [natural log] |
| --- | --- |
| Q55R | -0.142 |
| T37R | -0.0567 |
| L52H | -1.15 |
| A40D | -0.0932 |
| A57W | -0.269 |
| L59R | -1.07 |
| E44R | -0.165 |
| E32F | -0.442 |
| K34E | -0.294 |
| T48I | -0.0527 |
| E32Q | -0.186 |
| K39S | -0.436 |
| Q41K | -0.0883 |
| A29L | -0.311 |
| R30K | -0.179 |
| I28T | -0.233 |
| S43I | -0.0798 |
| S47Y | -0.17 |
| L45M | -0.394 |
| I28L | -0.156 |
| L52Y | -0.774 |
| N42M | -0.266 |
| V35G | -0.993 |
| K34D | -0.399 |
| A46E | -0.0581 |

Sample 4 — technique: DHFR PCA, deep sequencing; matrix: yeast; together with: (+)-ABA 0.032 µM; baseline: wild-type fitted maximum; reading: higher = stronger binding
Target: ABI1, truncated, D143A, DHFR fusion (Arabidopsis thaliana)
Setting: methotrexate growth selection, single substitutions
Starting sequence: PYL1, truncated, DHFR fusion (Arabidopsis thaliana); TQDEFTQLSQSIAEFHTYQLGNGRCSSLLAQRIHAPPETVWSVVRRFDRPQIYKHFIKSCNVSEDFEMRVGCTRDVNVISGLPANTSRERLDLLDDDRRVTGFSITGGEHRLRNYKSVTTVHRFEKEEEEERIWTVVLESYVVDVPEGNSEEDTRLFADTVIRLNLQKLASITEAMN; partner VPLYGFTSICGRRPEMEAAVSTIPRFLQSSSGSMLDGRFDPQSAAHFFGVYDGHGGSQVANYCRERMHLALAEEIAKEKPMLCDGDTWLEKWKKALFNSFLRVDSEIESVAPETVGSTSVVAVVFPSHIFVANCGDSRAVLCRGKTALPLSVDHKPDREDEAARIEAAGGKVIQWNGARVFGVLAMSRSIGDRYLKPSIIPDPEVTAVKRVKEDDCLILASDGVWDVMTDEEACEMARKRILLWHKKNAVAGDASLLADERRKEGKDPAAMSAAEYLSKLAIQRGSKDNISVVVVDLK
| Change | relative binding score |
| --- | --- |
| N149W | 7.55% |
| E129Y | 14.8% |
| S63L | 2.55% |
| Q167W | 1.08% |
| R74Q | -2.49% |
| N77T | 64.7% |
| S63Q | 16% |
| L8W | 8.56% |
| R155F | -9.03% |
| S87V | 59.2% |
| V70A | 6.95% |
| E127L | 32.4% |
| Q167K | 30.2% |
| S140N | -4.02% |
| K58F | -1.15% |
| D153E | 16.5% |
| E128T | 34.9% |
| I105C | 2.58% |
| H16S | 0.618% |
| I52V | 43.9% |
| V118T | 24.9% |
| W41R | 3.03% |
| E64Q | 30.9% |
| L138S | 6.8% |
| Q7T | 21.4% |

Sample 5 — target: CCND2, cyclin fold, Cln2 fusion (human); technique: yeast growth competition, sequencing; matrix: yeast; setting: weak parent motif; baseline: not given; reading: higher = stronger binding
Starting sequence: RB1 docking peptide (human); PKPLKKLRFDIEG; partner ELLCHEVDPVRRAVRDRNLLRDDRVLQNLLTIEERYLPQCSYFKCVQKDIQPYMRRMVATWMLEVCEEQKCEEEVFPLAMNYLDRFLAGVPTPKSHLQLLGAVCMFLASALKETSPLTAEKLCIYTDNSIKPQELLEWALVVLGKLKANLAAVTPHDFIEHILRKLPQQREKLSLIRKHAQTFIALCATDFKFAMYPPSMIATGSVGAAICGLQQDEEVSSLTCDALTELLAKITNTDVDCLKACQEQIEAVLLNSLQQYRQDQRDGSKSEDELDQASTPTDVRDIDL
| Change | normalised enrichment score |
| --- | --- |
| F9S | 0.0318 |
| D10E | -0.0887 |
| D10T | 0.163 |
| D10Q | 0.295 |
| K6R | 0.351 |
| G13R | 0.703 |
| L4V | 0.619 |
| E12R | -0.219 |
| R8W | 0.401 |
| E12Y | 0.05 |
| D10C | 0.0219 |
| K5V | 0.0363 |
| D10I | -0.461 |
| L4M | 0.339 |
| L4S | 0.374 |
| L7E | 0.116 |
| G13C | 0.619 |
| K2M | 0.344 |
| P3L | 0.421 |
| L4Q | -0.00881 |
| R8F | 0.155 |
| G13D | 0.476 |
| P1D | 0.801 |
| I11Y | 0.445 |
| K5F | -0.0233 |

Sample 6 — technique: RNA Bind-n-Seq; form: RNA; matrix: in vitro; concentration: 365 nM; baseline: no-protein control; reading: higher = stronger binding
Target: RNA binding protein fox-1 homolog 2, RRM domain, GST-SBP tag (RBFOX2, Homo sapiens, UniProt O43251-10, residues 100-194)
Setting: natural RNA segment, single round, ends assumed
Constant ends, left off below: GGGAGUUCUACAGUCCGACGAUC … UGGAAUUCUCGGGUGCCAA
Construct (chain): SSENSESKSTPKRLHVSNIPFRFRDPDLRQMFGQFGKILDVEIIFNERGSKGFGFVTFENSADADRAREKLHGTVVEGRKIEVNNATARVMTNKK
| Strand | RBNS enrichment (R) |
| --- | --- |
| CAGCUCUCCACACGCAGGGACUUUAUUUGGGGACAUCUGUCACCUUUGGGGUUGCCAUGGCCAAUGAGAUUUAUAAUCAUGAUCCUCUUGGGUGGUAGUUCCAAAGACAC | 0.281 |
| UCUUCGGUUGCUUUGCACCAGUAUGGUAUGGACAUGGGGUGGACAUUUCCAGGUAAGAGGAUCAGCGGAGAUAACUAGCAAUUUGGAGGUUAGUGUUUAGCUCUACCAAA | 0.784 |
| UUUUCCAGUUAUACGAGAUGCCAAAAUAGCACUUUUGUAUUUAACAGAGUGCUUUAUGCUUUUUAAUGACUGUUAGUGUUUCUCACAUGCCUGUGAGAUACAUCAGCAUU | 0.314 |
| UUUCUUGUGCUGACUAACUAUAAGCAUGAUCUUGUUAAUGCAUUUUUGAUGGGAAGAAAAGGUACAUGUUUACAAAGAGGUUUUAUGAAAAGAAUAAAAAUUGACUUCUU | 11.9 |
| GAAAGUAAGGGAUGCCUGGCCUAGCGGCUCGGCACAGAGGGAGGGGCAUCCCUGAGCUAAUCCCCACCCUCCAGUACAUUCCUAGGUCCUGGUCAUUUAGUUCAGAACAG | 0.255 |
| AAACUAUCAUUAUAAAUUGAAGUGUAUAUGCUCAGUAUAUUGGCAUAUAUGUGUAAUUCCAGCACUGGGAGGAGGACAAAGGGCAAUCAGGAGUUCAAGGCCAGCCUUAG | 0.367 |
| CUGUAGAUGAUGUAUUUUUUUCAUCUUUUUUGUUAACUGAUUUGCAAUAAAAAUGAUACUGAUGGUGUCUGGCUUCCACUCCCCUCUGCUCUGGCCUUUGGCUCCCUUUC | 2.89 |
| UCGUUACUUUCUGGCGAAUUUAACAUAAGCCUUGGGCACCUGUCACAAUUUUCUAAAGAUGGUUUGGGCUUCCUUACCUCCCAGUGUGAAGUGUUUCAAAUGUCUGUCAG | 0.358 |
| AGGGCUAAGGCACAGUAUUUGAAACCAUUAAAUGUGUUCUUUGGAGAAGUCUGGUUAACAUCCAUCAGCAGAAUGAGUUAAAACACACAAUGAAUUCAAUCUAUCAGGAU | 1.09 |
| AUGAGAACCUUGGCCUUUAUCACCCAAACAAGAACUCUCUAUGAGAUUGGUUGACGUGAGUUGGUUGAGUCUCUGGAGCAUCAGUUUUCAACUUCUGGAUCGCAACCCCU | 0.161 |
| GCCAAGAGCCGGCCGAAGCGGAGGAGGCCCAGGGCAAAGCGUCCACAACUUGCACAGCAGGCCCACCCUGCAAGGACCCCAUCAGUGUGAGCAUCGCAGUAGCCAGCCAC | 0.961 |
| UGUGGUGGGCAGGCGCACUUUAGCCUAAGUUGGGUGCCCCAGGGCACCCCCUCCUCUCUGCUCCUUGCCAGCUUCAUUCACUCCCAGCCUCUCGCUGUCCUCACUUUGCA | 2.79 |

Some of these lines once more (sample 3):
| Change | binding fitness [natural log] |
| --- | --- |
| E44R | -0.165 |
| E32F | -0.442 |
| K34E | -0.294 |
| T48I | -0.0527 |
| E32Q | -0.186 |
| K39S | -0.436 |
| Q41K | -0.0883 |
| A29L | -0.311 |
| R30K | -0.179 |
| I28T | -0.233 |
| S43I | -0.0798 |
| S47Y | -0.17 |
| L45M | -0.394 |
| I28L | -0.156 |
| L52Y | -0.774 |
| N42M | -0.266 |
| V35G | -0.993 |
| K34D | -0.399 |
| A46E | -0.0581 |
